Assay results gathered from unrelated publications.
Parts stem from different laboratories: compare values within a part only.

Study 1
Target: Interferon regulatory factor 3, full length, phosphomimetic (IRF3, Homo sapiens, UniProt Q14653, residues 1-427, S386D/S396D/S398D/S402D/T404D/S405D)
Method: protein-binding microarray
Molecule type: double-stranded DNA, one strand shown
Matrix: in vitro
Tested at: 2540 nM top
Notes: 60-bp whole probe
Added: salmon DNA 0.4 mg/ml
Reference: random background probes
Reading: higher = stronger binding
Shared flanks, not repeated: GCCTAGCAC … GTCTTGATTCGCTTGACGCTGCTG
Target sequence (chain): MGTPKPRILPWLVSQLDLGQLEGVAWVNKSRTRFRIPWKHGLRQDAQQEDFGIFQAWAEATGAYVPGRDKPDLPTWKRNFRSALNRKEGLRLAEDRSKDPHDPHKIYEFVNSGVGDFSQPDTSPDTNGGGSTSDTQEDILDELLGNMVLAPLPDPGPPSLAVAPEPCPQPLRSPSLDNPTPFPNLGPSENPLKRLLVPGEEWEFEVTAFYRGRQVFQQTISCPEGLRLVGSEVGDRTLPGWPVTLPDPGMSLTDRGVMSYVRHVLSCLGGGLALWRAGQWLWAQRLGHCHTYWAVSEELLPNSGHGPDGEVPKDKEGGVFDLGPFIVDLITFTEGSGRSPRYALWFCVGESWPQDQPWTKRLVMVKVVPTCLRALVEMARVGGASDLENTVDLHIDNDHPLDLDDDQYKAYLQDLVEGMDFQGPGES
Oligonucleotide	fitted relative affinity
TTAGGTATCGACTATCAGTTAGTGCTA	0.295 z-score
TCAGCTATGTTGTCCAGGACTGTGCTA	-0.539 z-score
TCATTTCTTTACTTCACACTGTGCTAG	2.31 z-score
TCATTTATATACCTGAAACTGTGCTAG	1.24 z-score
TCACATGTTTTTTTCTAACTGTGCTAG	0.597 z-score
GACGGTATCCTTATGCTGACGTGCTAG	3.95 z-score
GACGGGATCGACTTTCGGGACGTGCTA	0.355 z-score
TCAACTCTTCTTTTTTTACTGTGCTAG	0.947 z-score
TCAGGTTCTCTTTTATTACTGTGCTAG	2.12 z-score
TTAGATTTCGACTATCGGTTAGTGCTA	0.874 z-score
GACGGTCTCGGTCTTGGGACGTGCTAG	1.2 z-score
TGCTGTGTACATCTCTCTTAGTGCTAG	0.108 z-score
TCACGGGCTTCTTTTTCTACTGTGCTA	-0.349 z-score
TTAGATATAGGGTATCGATTAGTGCTA	0.0355 z-score
TTAGATACCGGGTTTCGATTAGTGCTA	1.9 z-score
TTAGATTTTAGTTTCGATTAGTGCTAG	5 z-score
TTAGGCATCCTTCTCCTTTAGTGCTAG	1.19 z-score

Study 2
Target: RING finger protein unkempt homolog, zinc fingers 1-6, GST-SBP tag (UNK, Homo sapiens, UniProt Q9C0B0, residues 30-357)
Method: RNA Bind-n-Seq
Molecule type: RNA
Matrix: in vitro
Tested at: not given
Notes: RNA with constant flanks, human-mouse chimeric sites, ends assumed
Reference: input RNA pool
Reading: higher = stronger binding
Shared flanks, not repeated: GGGAGUUCUACAGUCCGACGAUC … CAACAGAGGAUUGAGCAUCA
Target sequence (chain): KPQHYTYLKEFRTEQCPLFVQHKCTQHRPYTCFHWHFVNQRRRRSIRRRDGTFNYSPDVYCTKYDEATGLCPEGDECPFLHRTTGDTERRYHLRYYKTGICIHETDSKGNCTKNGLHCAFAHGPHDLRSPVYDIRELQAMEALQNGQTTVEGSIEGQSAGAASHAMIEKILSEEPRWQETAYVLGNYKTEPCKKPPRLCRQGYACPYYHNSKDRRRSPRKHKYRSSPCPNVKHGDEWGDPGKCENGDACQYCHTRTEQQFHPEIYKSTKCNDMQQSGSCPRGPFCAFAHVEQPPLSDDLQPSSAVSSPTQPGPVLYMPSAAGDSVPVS
Oligonucleotide	bound/input enrichment
GGACAUCUGUCAAAUUGUUAUGUUCCUGUGAAACAAGUGAACACUCUUCAUAUACUAAUCUGCUUGUACAUUUAACUGAUAGAGAAAUGUAAAUAUGUUAAUCCAAGCAAUGUGUCACUU	0.303 ratio
GAGCCAAGCCGGCAGUUUGUAAAGGACUCAAUUCGGCUGGUUAAAAGAUGCACCAAACCCGACAGAAAAGAAUUCCAGAAGAUUGCCAUGGCUACAGCUAUAGGAUUUGCUAUCAUGGGA	0.266 ratio
CAGCCUCAGAGCCCAGACUUCCUGGAUAUCACCAACCCUAAAGCGGUAUUAGAAAAUGCAUUGAGAAACUUUGCCUGUCUGACGACUGGAGAUGUGAUUGCUAUCAACUACAAUGAGAAG	0.501 ratio
GAAUCCUACUCAGGCGGAUUUUGCAACCUGAAUGCAACAGCAGCAGCAUCUUAGUCACAGUAGGGUAGUUUUGGGGCUCUGUGGCCAUGGUUUUACUCACAUGCAGGUUUGGAAAAUGUA	0.778 ratio
UACUCAACUUUCUUGCCACAUUUUGAAUUCCAAGACAUUAUCCCUCCAGAUGACUUCCUAACUAGUGAUGAAGAGCAAGAUUUGGUUUUAUUUGGAACUAUGAGAGGACAAGUUGUUGGA	0.249 ratio
AAAGAGAAACUAAAGCAACUAAUAGAGAAGAGGAUUGGGCAAAGAGAUUUCAUAGAGAAACUAGGAUUUAUUAGCAAACAUGAGUUAGUAUUCCAGACGUCUCAGAAACCCCAGCCAAAC	2.17 ratio
GCUCCUCCCCGCUCUGCAGCCUGGGGACACUGGGCUGCAUUUUUUUUCUUAUUUUUUUUUAAAACUCUCAGUGUAACUGUAUCCCGUGACAUUUCAUUUUUUUUAAAUAGUGUAUUUUUU	23.8 ratio
CUGAAAAACACAGAUAUCAAAGUUGUUGAUUUUGGAAGUGCAACGUAUGAUGAUGAACAUCACAGUACUUUGGUGUCUACCCGGCACUACAGGGCUCCCGAGGUCAUUUUGGCUUUAGGU	0.329 ratio
GCAAAGGAUGAUGAGGCGGCAGCUGUUGCCCUUUCCUCUCUCGUUCAUGCUUUGGAUGAGUUAAACAUGGUCGCCAUCGUCCGAUAUGCUUAUGACAAAAGAGCUAAUCCUCAAGUUGGU	0.259 ratio
GUGCCCUUCUCGCUGCUGCGGAGCCCGCCCAGCUGGGCAUUCCGGGACUGGUACCCUCCGCAUAGCCGCCUCUUCGAUCAAGCUUUCGGGGUGCCCCGGUUGCCCGAUGAGUGGUCGCAG	0.0799 ratio
ACCAUUUCUGAAUACACGGCUUUGUGUGUAGUUCACUUACGGUAUUAAAUUAUUAUUCUGCUUAGCUUAAAGUAAGGAUAAUUGCAUUUAAAGAGGUUACUGAAUGUUACUCUGAAACUU	0.199 ratio

Study 3
Target: Histone acetyltransferase KAT6A, winged helix 1, GST fusion (KAT6A, Homo sapiens, UniProt Q92794, residues 1-85)
Method: protein binding microarray
Molecule type: double-stranded DNA, one strand shown
Matrix: in vitro
Tested at: not given
Notes: 8-mer, flanks averaged, mean of 2 arrays, mostly near background
Reference: not given
Reading: higher = stronger binding
Target sequence (chain): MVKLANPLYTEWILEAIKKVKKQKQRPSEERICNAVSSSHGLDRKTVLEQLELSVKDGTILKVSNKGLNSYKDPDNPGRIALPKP
Oligonucleotide	E-score
ACGTCAGA	-0.252
TAAAACAA	-0.154
CTACCAGC	-0.042
GCTAGTAA	-0.0902
AAACCTGG	-0.158
CACACATA	-0.292
CACAAGAC	-0.149
CCGAGTAC	0.251
ACCACAAT	-0.162
ACGCTGTA	0.094
CTAGAGGC	-0.0865
GGCTGGTA	0.00107
AATGAGGT	-0.287
ACCTGAAG	-0.0396
ATCGGAAG	-0.0459
AGGTCGCC	0.14
GTGGTATA	-0.219
AAGAAAAC	-0.0711
CTGTCTTA	0.0637
ACTGCGAT	-0.0165
GATGGCAC	0.0209
AAAAACGA	-0.107
CAGAACCA	-0.142
GATTGAGC	0.0103
GGGAAACC	0.11

Study 4
Target: Sal-like protein 4, full length isoform B (SALL4, Homo sapiens, UniProt Q9UJQ4-2, residues 1-616)
Method: universal PBM
Molecule type: double-stranded DNA, one strand shown
Matrix: in vitro
Tested at: not given
Notes: 8-mer, flanks averaged, mean of replicates
Reading: higher = stronger binding
Target sequence (chain): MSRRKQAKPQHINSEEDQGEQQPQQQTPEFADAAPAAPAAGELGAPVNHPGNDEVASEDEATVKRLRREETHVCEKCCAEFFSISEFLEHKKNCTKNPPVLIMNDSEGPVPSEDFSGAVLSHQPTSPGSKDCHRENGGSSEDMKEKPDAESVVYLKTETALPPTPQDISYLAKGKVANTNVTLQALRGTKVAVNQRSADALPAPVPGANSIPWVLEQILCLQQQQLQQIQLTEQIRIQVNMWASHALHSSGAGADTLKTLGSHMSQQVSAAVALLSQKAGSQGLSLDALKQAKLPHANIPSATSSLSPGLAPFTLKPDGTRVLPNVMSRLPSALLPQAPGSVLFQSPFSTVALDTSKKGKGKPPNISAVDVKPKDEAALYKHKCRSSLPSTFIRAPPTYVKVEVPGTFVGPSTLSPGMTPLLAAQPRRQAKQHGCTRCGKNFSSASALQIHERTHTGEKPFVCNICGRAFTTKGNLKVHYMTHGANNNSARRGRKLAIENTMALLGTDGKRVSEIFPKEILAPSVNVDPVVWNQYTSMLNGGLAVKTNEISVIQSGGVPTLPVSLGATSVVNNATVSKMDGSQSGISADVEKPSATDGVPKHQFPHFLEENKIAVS
Oligonucleotide	E-score
GATGCGGA	-0.26
CGCGTTGC	-0.117
ATACTCGA	0.0647
GTATCCCA	-0.0697
CTCAGCAC	-0.213
AGCCTATG	0.0824
GAAAGGAA	-0.119
GCGCGCCA	-0.091
GGTTTAAA	0.187
CACTATCC	0.108
ACCTTTAG	0.104
AGCGTACA	0.0165
ATGCGTAG	-0.0151
AAAGACGT	0.0473
CGTTTGGC	-0.0572
CCTGGGTA	-0.217
CAGGACAC	-0.13
AAGCTTTG	0.0227
CACTCTTC	-0.0465
CATAGGTA	0.0877
CTTAATGA	0.146
GATCCACA	0.07
AGATCGGA	0.0409
GCCAAATA	0.1

Study 5
Target: RNA binding protein fox-1 homolog 2, RRM domain, GST-SBP tag (RBFOX2, Homo sapiens, UniProt O43251-10, residues 100-194)
Method: RNA Bind-n-Seq
Molecule type: RNA
Matrix: in vitro
Tested at: 365 nM
Notes: natural RNA segment, single round, ends assumed
Reference: no-protein control
Reading: higher = stronger binding
Shared flanks, not repeated: GGGAGUUCUACAGUCCGACGAUC … UGGAAUUCUCGGGUGCCAA
Residues (chain): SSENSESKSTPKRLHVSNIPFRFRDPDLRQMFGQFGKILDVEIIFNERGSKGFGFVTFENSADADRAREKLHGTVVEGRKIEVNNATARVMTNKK
Oligonucleotide	RBNS enrichment (R)
UGACCUCAAGAGAAACAGCCUAAGAAGCCCGCCUUCUGGUCCCAAUCUGCAGACCCUCCAGCAGUUGGCUGUUGAGUCCCUGCUGUGGAAGUUCUCUUGACUAUCACCUG	0.248
UUUUAUGCAGUAGGCAUUACUACAGUACAUGGCUAAUCUUCCCAAAAACUAGCUCAUUAAAGAUGAAAUAGACCAGCUCUCUUCAGUGAAGAGGACAAAUAGUUUAUUUA	0.277
UUCGUCCUGUACCUAGGACCGGAGGAAAGACGUGACUGCUCUAACCGGACCUCUGACUACCGGUGGCUUUUACAAAAAAAAAACAGCUAAAACGUACUCAGCAAAAAAAA	0.249
AAAUCACUGCCGGAGACAGCCCACAUUUCCUUGUAGUUGUUAUUAGGGCACAAACCACUCCACAGUCCCAGUGUGGAGUCACAGUCUAGAGAGAAUUGGAAAUGCACGUG	1.08
AUGCCGAGCUCACCCUCAAUGUGGCCUUGGGCAAGGUCUUCACAGGGGGCGCCCUGUAUUUUGGGGGCCUCUUCCAGGCACCCACAGCCCUGACGGAGCCCCUGGAGGUG	0.209
UCUUUAAAUUGGGUAUAUGAAAACAUUACCAACUCUUGUUUUUCUAUAAAGAAAUACAGUUAAUAACAAGGUUUCAAAUUAUUCCUUUAACAUUAAUAGAACAAUCCAAA	0.423
UCAGGAGGACAGGACGCUGCUUUAGGGAAGUAUCAAAUUCCGUAUUGAAGAAAAGCUUUCAGAGGGCAUGUAUAGGAAGUGAUUUUGGGGAAGUCGUUUUUUGUUUGUUU	3.17
CUCAGGCAGGCCUGACCCGGCGGCACAGCCUGGCAGGGACCUCGUCCCCAAGCCUGGCAGAAUGAGAGGGGUUGAGGUCCCGAGCGCCACUCCUAGCCUUGCCGCCUUCA	1.31
UCUAUACCUUUGUGCACAGUUGAAUGGGAACUGUUUGGGUUUAGGGCAUCUUAGAGUUGAUUGAUGGAAAAAGCAGACAGGAACUGGUGGGAGGUCAAGUGGGGAAGUUG	11.2
GUUCUUGUGCAUCAGGAUAUAUCAAGCUGCCUUCAUGGCUAUAGAAUGUAAUGUAAGAAAAAUGUUCAUAAAUAUGGACAAAAAUGGUCCAGAUUACUUAGUUUAAAUAG	0.549
ACCGGGGUCAGGUCUCUCAUCUUAAGAAGUUCCCUCUAAAAUGAAAGGUUGUGUAAGAGGAAAGCCUGCUCAGGCCCAAGGGUUUCGAGAACCUGCACUUGGUGCUAAUC	0.705
AGACCCUCUUCCCUUUGCCCUUCUCCUCCAAUACAUAAAGGACACAGACAAGGAACUUGCUGAAAGGCCAACCAUUUCAGGAUCAGUCAAAGGCAGCAAGCAGAUAGACU	0.171

Excerpt of the above (study 3):
Oligonucleotide	E-score
ACCTGAAG	-0.0396
GGCTGGTA	0.00107
ATCGGAAG	-0.0459
GATTGAGC	0.0103
ACCACAAT	-0.162
CCGAGTAC	0.251
GCTAGTAA	-0.0902
CAGAACCA	-0.142
AAGAAAAC	-0.0711
AAAAACGA	-0.107
CTGTCTTA	0.0637
